Measurements pooled from the literature.
A part holds a random share of what one study measured.

Series 1
Target: Prothrombin, mature alpha-thrombin (F2, Homo sapiens, UniProt P00734)
Technique: aptamer microarray, sandwich
Molecule type: DNA with 2'F-ANA
Sample: in vitro
Concentration: 200 nM
Notes: whole 15-mer aptamer, many near background
Together with: Cy3 exosite-II aptamer, 400 nM
Reading: higher = stronger binding
Sequence: GGTTGGTGTGGTTGG
| Modification | mean fluorescence intensity [a.u.] |
| --- | --- |
| 2'F-ANA at 1 4 7 8 9 10 11 12 13 14 15 | 142 |
| 2'F-ANA at 2 3 4 5 6 7 9 11 12 13 | 86.9 |
| 2'F-ANA at 1 2 5 6 9 10 14 15 | 62 |
| 2'F-ANA at 1 2 3 7 9 11 13 14 15 | 69.6 |
| 2'F-ANA at 2 3 4 6 9 10 11 12 13 | 188 |
| 2'F-ANA at 1 3 4 10 12 15 | 79.4 |
| 2'F-ANA at 1 4 7 8 10 12 14 15 | 44.4 |
| 2'F-ANA at 1 2 3 6 8 9 10 11 13 14 | 55.3 |
| 2'F-ANA at 1 2 4 5 6 7 8 9 10 12 14 | 66.7 |
| 2'F-ANA at 1 3 4 5 6 7 10 14 | 48.4 |
| 2'F-ANA at 1 2 5 6 11 14 15 | 51.8 |
| 2'F-ANA at 1 2 3 5 7 10 11 13 14 | 80.5 |
| 2'F-ANA at 1 2 3 4 6 8 10 12 13 14 | 49 |
| 2'F-ANA at 1 3 4 5 13 15 | 48.8 |
| 2'F-ANA at 2 8 11 13 | 413 |
| 2'F-ANA at 1 6 8 9 11 13 14 | 54.4 |
| 2'F-ANA at 1 2 4 6 9 10 | 61.8 |
| 2'F-ANA at 1 2 4 7 10 14 | 43.1 |
| 2'F-ANA at 1 4 7 10 11 12 14 15 | 49.1 |
| 2'F-ANA at 2 4 5 6 7 8 9 11 14 15 | 53.2 |
| 2'F-ANA at 3 4 5 6 7 9 10 11 12 13 14 15 | 60 |
| 2'F-ANA at 1 2 6 7 8 9 10 11 12 | 63.8 |
| 2'F-ANA at 3 5 7 8 9 11 12 | 367 |
| 2'F-ANA at 2 4 5 8 13 14 15 | 44 |
| 2'F-ANA at 2 3 4 5 6 7 10 11 12 13 14 15 | 49 |

Series 2
Target: Histone acetyltransferase KAT6A, winged helix 1, GST fusion (KAT6A, Homo sapiens, UniProt Q92794, residues 1-85)
Technique: protein binding microarray
Molecule type: double-stranded DNA, one strand shown
Sample: in vitro
Concentration: not given
Notes: 8-mer, flanks averaged, mean of 2 arrays, mostly near background
Relative to: not given
Reading: higher = stronger binding
Target sequence (chain): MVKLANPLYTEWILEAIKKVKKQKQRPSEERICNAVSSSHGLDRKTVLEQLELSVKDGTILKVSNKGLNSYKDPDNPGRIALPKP
| Sequence | E-score |
| --- | --- |
| GCTAACCC | 0.133 |
| GGGCCAAA | 0.0708 |
| AGGGTAAA | -0.155 |
| GCAACGAC | 0.0635 |
| AAGACTGA | -0.177 |
| AGTCGAAC | -0.155 |
| GCATACAC | -0.106 |
| AGGCACCC | -0.0501 |
| CGTGTCTA | 0.0919 |
| ACGATTCG | 0.0973 |
| AAGCACAA | -0.362 |
| AGGTTCGA | -0.183 |
| AGCCCGCA | 0.134 |
| TAATATTA | -0.0778 |
| CCCTTCCG | 0.18 |
| ACTCGGCG | 0.273 |
| CAACAGGG | -0.288 |
| ACCTGAAC | -0.293 |
| AGTAACTA | 0.0268 |
| GAGCCAGA | -0.288 |
| GGTCCGAC | 0.193 |
| AGCTGATG | 0.0405 |
| AACTGGCG | 0.0496 |
| ACACTGAG | -0.0803 |
| CCTCGTAA | -0.0274 |

Series 3
Target: RING finger protein unkempt homolog, zinc fingers 1-6, GST-SBP tag (UNK, Homo sapiens, UniProt Q9C0B0, residues 30-357)
Chain of UniProt Q9C0B0 (30-357, looked up): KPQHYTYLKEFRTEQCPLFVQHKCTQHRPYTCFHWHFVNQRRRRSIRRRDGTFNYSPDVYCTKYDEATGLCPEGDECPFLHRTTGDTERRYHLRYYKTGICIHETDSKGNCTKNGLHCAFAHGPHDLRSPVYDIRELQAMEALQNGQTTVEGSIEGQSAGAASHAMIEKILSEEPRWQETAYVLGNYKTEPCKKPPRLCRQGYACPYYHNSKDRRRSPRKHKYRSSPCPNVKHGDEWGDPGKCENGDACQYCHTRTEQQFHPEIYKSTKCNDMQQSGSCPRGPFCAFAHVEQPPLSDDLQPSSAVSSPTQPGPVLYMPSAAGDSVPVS
Technique: RNA Bind-n-Seq
Molecule type: RNA
Sample: in vitro
Concentration: not given
Notes: RNA with constant flanks, human-mouse chimeric sites, ends assumed
Relative to: input RNA pool
Reading: higher = stronger binding
Constant ends, left off below: GGGAGUUCUACAGUCCGACGAUC … CAACAGAGGAUUGAGCAUCA
| Sequence | bound/input enrichment |
| --- | --- |
| GGUGGGGUGGUCAUUGCCGUUUGAGCUGCUGAUUUUCAUGAGUCGCCCAUUCAGAACUCGUGUAGGGUUGACACUGUGGGGGGGUGGGGGAUCCAGCUUAUUCUUUUAUUUUCAAGUCCA | 0.504 ratio |
| AUGGAGAAGGAUUCUCUGCCCCGCUUUGUGCGCUCUGAAUUUUAUAAGGAGCUAAUCAAGUAGUCAUCUGGUCAGGCUAUGAAAUCAUCCUGUGAGUGUUGAGUUACAUCCUUUGUAGCA | 0.252 ratio |
| UCUGAGGUACCACUGAAGAGACCUUAAAAGAAUCAUUUGAGGGCUCUGUUCGUGCAAGAAUAGUCACUGAUCGGGAAAACUGGGUCCCCAAAGGGUUUGGUUUUGUAGACUUUAAUAGUG | 0.714 ratio |
| UUAAUCCCCUUUACUGCUCCCCCACUUCUCAUGGUAAUAACAAAGUCUUAUAUCCCCGUCCUAGCUUUUACUCAGAUGGCUUAUGGAGCCGGUUUCCUAGCUUUCUUGGGUGGGAUCAGA | 0.756 ratio |
| UCUUAACUUAUUCAUUUCUUAUUUUUAUAGCACUUAGUAAAUAUUGUUAGUCUUAGACAAUAGCUCACAUUUUUUGAGAAGCAUGCCCUCCCUGUCCAUUUGUCUUAUAACAUGACCCAG | 361 ratio |
| AUGGAGAAGGAUUCUCUGCCCCGCUUUGUGCGCUCUGAAUUUUAUAAGGAGCUAAUCAAGUAGUCAUCUGGUCAGGCUUCCAAAAGUUGCCCUGUGAUAUUUCCUCCAUCCUUUGUAGCA | 0.213 ratio |
| GAGUCGAGCAAACUUGAAACUACAGAAUAUCUUGCAGCCUCAGUGUUCACUUGCUUGGCGAUAGCAUAUUGGGAUUUUAGGUUCUGGAAGGAGAACUGACGAUGAUGCUGCCGCUGCUGC | 0.577 ratio |
| CAGCGCCGAGGCCGCGGGUGCCCGCCGGGCCUCCCCAGCAGCAGCCAUGGGCAUCAAAUUUUUAGAAGUUAUCAAACCAUUCUGUGCAGUUCUACCAGAAAUUCAGAAACCGGAAAGGAA | 1.11 ratio |
| GGACAUCUGUCAAAUUGUAUUUCCCGUGUGAAACAAGUGAACACUCUGAUACACUUCAUCUGCUUGUACAUUUAACUGAUAGAGAAAUGUAAAUAUGUUAAUCCAAGCAAUGUGUCACUU | 0.351 ratio |
| GGUGGGGUGGUCAUUGCCGUUUGAGCUGCUGAUUUUCAUGAGUCGCCUUCAAAACUCUCGCAUAGGGUUGACAAUGUGGGGGGGUGGGGGAUCCAGCUAUUUUUUUUAUUUUCAAGUCCA | 2.93 ratio |
| AUAGAUGAAAUUGAUGUAGAUCAGGAAGGAAUUGCUGAAAUGAUGCUGGAUGAAAAUGCUAUUGCUCAGGUCCCACGCCCUGGCACAUCUUUGAAGCUCCCUGGCACUAACCAAACAGGA | 0.505 ratio |

Series 4
Target: RNA binding protein fox-1 homolog 2, RRM domain, GST-SBP tag (RBFOX2, Homo sapiens, UniProt O43251-10, residues 100-194)
Technique: RNA Bind-n-Seq
Molecule type: RNA
Sample: in vitro
Concentration: 365 nM
Notes: natural RNA segment, single round, ends assumed
Relative to: no-protein control
Reading: higher = stronger binding
Constant ends, left off below: GGGAGUUCUACAGUCCGACGAUC … UGGAAUUCUCGGGUGCCAA
Residues (chain): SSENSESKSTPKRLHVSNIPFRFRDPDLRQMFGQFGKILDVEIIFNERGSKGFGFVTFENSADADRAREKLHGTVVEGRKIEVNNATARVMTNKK
| Sequence | RBNS enrichment (R) |
| --- | --- |
| AAAAGAUUGCAUUUACCUUUUCAGUGGUAGAAAAUCAUUUAGUUCUUUGCUAUAAAUGAUUCAGAAUUUUGUCAGAUUUUGUAGGUUGUAUCAUCGUAAGACGGAGUUGC | 0.716 |
| GACUAGAGAGAAGCCUCCUGCUCCCCUCGCCUGCACACCCCCUUUCAGAGGGCCACUGGGUUAGGACCUGAGGACCUCACUUGGCCCUGCAAGGCCCGCUUUUCAGGGAC | 0.572 |
| GGCAUUCCCUCUAGAUUCAGGUUUGGGCAGGGGUCCUAUAGUCCCUGCCAUGGGGCUGCUUCCCUGUCCCUUCCCUCCCCUUUGCUGGCCUACUCUGGCAUAAUUCAAGU | 0.314 |
| UUUUUUUUUUCUUUUUGUCCAGACUUAAAUUGUUUUGUCUUCAGAGUUUUGGAGGACCCCGGUCCCCACAAUGCCAGGCUGCAGGAUAACUGCCAUCCCCUUCUGUGAGU | 0.462 |
| UGGUUUUUAGCCCUUUCUCUGCACUACCAACAAGAGAUAAAAUUGUUACUCACACUUAUGUCUUACUGGGUUGCUGGUUUUCAUCGUAACACAGAACGAGGUUAUCUAGG | 0.411 |
| UCCCGAUGCAUGGGAUCCAGUGCCCUCUUCUGAUCUCUAUGGGCAUCAGGCAUGCACACAGUACACUUAUAUACAUGCAGAAAAAAAUACUGAGACACAUGAAAUAAGAU | 6.29 |
| UCCUGCACGUAGCUGAGUGAGCUUAAGCCUUUAGUUUGGGGUGUGAAUAGGGAUCUGUGGUAGCCAGUGUUCCUAUGUUCUGCUAGUACCUGGGUCACCAGCCAUAGGGU | 2.13 |
| AGCUGAUGUGAUAGUCAGCUUCUCUGGAGUCAACAGGGUGAAUCCUUCCCAAGUCCAGCCAUGCCCAGAUGCCCGGAGGGAAAACUGACCCCCAGCCAGUAGACAUUGGC | 0.306 |
| UCUUUAAUGUACUGGAAAAAGCCUAUGUGAAUCUGUUGAUAGAAUUUAAAAUUCCAGGCCGGGCGUGGUGGCUCACGACUGUAAUCCCAGAACUUUGGGAGGCCAAGGCA | 1.12 |
| AAUAAUUGUGUUCAUUUUUGUUUUGUUUCCUUGUGUACUCCAGCAUUGGUUAUAGUCAUGGGAAAGGAAGGUGUCCACGCAGGCACAAUUAACAAGAAAACAUAUGAACU | 0.429 |
| CAGGUAUAAAACAGUUGUUUUCUAAAAACAUGCAUUUAGUAUGGCAUUCUCUUUUAGCAACUGAAUUCCCAACGAGUUUUAUUAAGCUGGAUAUCGAAAUGAAGGAGCUG | 0.416 |
| ACAGUGUACAGCCUUUGACAAACUAGAAAUAUUAGAGUAGGCCAAACACACCUCCAAACUGUAAGGCUGUGCACAAACAUAAAAAAUGGCAGCCUUCCAUCUCCUGCACU | 0.299 |

Mixed results
| Molecule | target | test | system | conditions | how to read | endpoint | value |
| --- | --- | --- | --- | --- | --- | --- | --- |
| PhoQ, residues 284 288 289 292 302 303 SACGEM | PhoP, residues 12 14 15 18 19 AQALL (Escherichia coli, UniProt P23836) | Sort-seq, item: YFP reporter | E. coli | PhoQ-PhoP variant library, together with: 10 µM Mg2+ | relative to: high Mg2+ state, higher = stronger signaling | fold induction | 2.09 |

Some of these lines once more (series 4):
| Sequence | RBNS enrichment (R) |
| --- | --- |
| AGCUGAUGUGAUAGUCAGCUUCUCUGGAGUCAACAGGGUGAAUCCUUCCCAAGUCCAGCCAUGCCCAGAUGCCCGGAGGGAAAACUGACCCCCAGCCAGUAGACAUUGGC | 0.306 |
| UCUUUAAUGUACUGGAAAAAGCCUAUGUGAAUCUGUUGAUAGAAUUUAAAAUUCCAGGCCGGGCGUGGUGGCUCACGACUGUAAUCCCAGAACUUUGGGAGGCCAAGGCA | 1.12 |
| AAUAAUUGUGUUCAUUUUUGUUUUGUUUCCUUGUGUACUCCAGCAUUGGUUAUAGUCAUGGGAAAGGAAGGUGUCCACGCAGGCACAAUUAACAAGAAAACAUAUGAACU | 0.429 |
| CAGGUAUAAAACAGUUGUUUUCUAAAAACAUGCAUUUAGUAUGGCAUUCUCUUUUAGCAACUGAAUUCCCAACGAGUUUUAUUAAGCUGGAUAUCGAAAUGAAGGAGCUG | 0.416 |
| ACAGUGUACAGCCUUUGACAAACUAGAAAUAUUAGAGUAGGCCAAACACACCUCCAAACUGUAAGGCUGUGCACAAACAUAAAAAAUGGCAGCCUUCCAUCUCCUGCACU | 0.299 |
